Results pooled from the literature.
Every numbered part comes from another study and shows a few of its results, in no order. Substitutions count along the parent as printed.

Series 1
Target: ABI1, truncated, D143A, DHFR fusion (Arabidopsis thaliana)
Technique: DHFR PCA, deep sequencing
Matrix: yeast
Notes: methotrexate growth selection, single substitutions
Added: (+)-ABA 58 µM
Reference: wild-type fitted maximum
Reading: higher = stronger binding
Parent: PYL1, truncated, DHFR fusion (Arabidopsis thaliana); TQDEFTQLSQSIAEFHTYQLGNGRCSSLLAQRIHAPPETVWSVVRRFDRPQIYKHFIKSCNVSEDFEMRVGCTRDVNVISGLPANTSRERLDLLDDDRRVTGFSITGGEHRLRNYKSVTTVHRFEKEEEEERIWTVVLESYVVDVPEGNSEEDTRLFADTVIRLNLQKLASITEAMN; partner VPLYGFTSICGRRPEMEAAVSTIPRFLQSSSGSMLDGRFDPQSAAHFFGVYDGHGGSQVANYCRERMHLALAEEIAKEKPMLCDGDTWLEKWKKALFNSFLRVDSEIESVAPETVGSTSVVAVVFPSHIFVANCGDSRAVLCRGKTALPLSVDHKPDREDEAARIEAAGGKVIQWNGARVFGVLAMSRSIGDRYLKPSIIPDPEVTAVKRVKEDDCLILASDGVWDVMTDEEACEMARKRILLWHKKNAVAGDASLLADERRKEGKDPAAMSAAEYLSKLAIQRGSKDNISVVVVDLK
For `S11L`, “relative binding score” read 71.3%.
`P36E`: “relative binding score” 80.8%.
Under “relative binding score”, `R99N` is recorded as 68.2%.
For `E38F`, “relative binding score” read 27.7%.
Under “relative binding score”, `N177W` is recorded as 72.9%.
For `F157Q`, “relative binding score” read -1.8%.
For `E125V`, “relative binding score” read 101%.

Series 2
Target: Histone acetyltransferase KAT6A, both winged helices, GST fusion (KAT6A, Homo sapiens, UniProt Q92794, residues 1-181)
Technique: protein binding microarray
Molecule type: double-stranded DNA, one strand shown
Matrix: in vitro
Concentration: not given
Notes: 8-mer, flanks averaged, mean of 2 arrays, mostly near background
Reference: not given
Reading: higher = stronger binding
Construct (chain): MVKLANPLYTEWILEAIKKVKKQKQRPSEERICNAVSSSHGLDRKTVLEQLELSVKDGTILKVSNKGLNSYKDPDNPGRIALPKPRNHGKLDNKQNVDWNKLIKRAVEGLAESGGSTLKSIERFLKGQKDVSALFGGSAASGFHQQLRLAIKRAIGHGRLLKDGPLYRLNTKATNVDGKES
With `AGCATCAA` the E-score was -0.167.
With `CTGATATC` the E-score was 0.0826.
With `CGTGATAA` the E-score was 0.0927.
With `TCTCAACA` the E-score was -0.0446.
`CATCCACG` has an E-score of 0.0103.
The E-score of `CTCGAACC` is reported as -0.0499.

Series 3
Target: CCNA1, cyclin fold, Cln2 fusion (human)
Technique: yeast growth competition, sequencing
Matrix: yeast
Notes: weak parent motif
Reference: not given
Reading: higher = stronger binding
Parent: WEE1 docking peptide (human); HKTFRKLRLFDTP; partner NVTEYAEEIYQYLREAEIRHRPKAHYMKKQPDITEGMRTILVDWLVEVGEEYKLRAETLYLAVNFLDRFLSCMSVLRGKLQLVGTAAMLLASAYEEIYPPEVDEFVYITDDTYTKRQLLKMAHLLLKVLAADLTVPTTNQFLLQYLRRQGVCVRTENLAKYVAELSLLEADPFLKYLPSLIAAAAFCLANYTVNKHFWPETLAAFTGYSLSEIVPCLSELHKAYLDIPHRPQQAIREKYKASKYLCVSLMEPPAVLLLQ
`D11C`: “normalised enrichment score” 0.499.
`R5W`: “normalised enrichment score” 0.207.
`R8T`: “normalised enrichment score” 0.369.
For `T12G`, “normalised enrichment score” read 0.536.
`F4Y`: “normalised enrichment score” 0.411.
`K6D` — result for “normalised enrichment score”: 0.46.

Mixed results
For `PhoQ, residues 284 288 289 292 302 303 SLSLLA`, the fold induction was 14.7 (PhoP, residues 12 14 15 18 19 NQGLL (Escherichia coli, UniProt P23836); Sort-seq, refers to: YFP reporter; E. coli; PhoQ-PhoP variant library, added: 10 µM Mg2+; reference: high Mg2+ state, higher = stronger signaling).

Repeated from above (series 2):
With `CTGATATC` the E-score was 0.0826.
